# Assay results pooled from the literature.
# Several values in a cell are separate wells, animals, samples, runs or records. Numbers after ± are the reported error.
SMILES,organism,assay,system,setting,EC50
CCCCCc1nc(N)[nH]c(=O)c1Br,reovirus type 1,virus-induced cytopathicity,Vero,,> 100 µM
O=C(N1CCC2(CC1)C[C@@H](CN1CCCCS1(=O)=O)CCO2)C1(c2ccccc2)CCCC1,human respiratory syncytial virus,viral replication,,,> 32 µM
NC(=O)c1ncn([C@@H]2O[C@H](CO)[C@@H](O)[C@H]2O)n1,reovirus type 1,viral replication,Vero,,> 250 µM
COc1ccnc(C(=O)N[C@H]2COC(=O)[C@H](Cc3ccccc3)[C@@H](OC(=O)C(C)C)[C@H](C)OC2=O)c1OCOC(=O)C(C)C,Pseudokirchneriella subcapitata,growth rate,,"72 h, static test",> 0.522 µg/mL
COc1cc(N[C@H](C(=O)c2c[nH]c3ccc(OC(F)(F)F)cc23)c2ccc(Cl)cc2OC)cc(S(C)(=O)=O)c1,dengue virus type 2,"viral replication, Renilla luciferase reporter virus",Huh-7.5.1,48 h,2e-05 µM
Nc1nc(CC(O)c2ccc(Cl)cc2)c(Br)c(=O)[nH]1 (stereo not shown),reovirus type 1,virus-induced cytopathicity,Vero,,> 100 µM
Cc1cn([C@H]2C[C@H](F)[C@@H](CO)O2)c(=O)[nH]c1=O,human adenovirus 2,viral cytopathic effect,HEL,,3.4 µM
CCOC(=O)C1(Cc2ccccc2)CN(c2ccccc2)Cc2nnn(Cc3ccc(F)cc3)c21 (stereo not shown),human adenovirus 2,viral replication,HEL,,> 100 µM
Nc1ncnc2c1ncn2C[C@H](O)CO,reovirus type 1,virus-induced cytopathicity,Vero,,> 250 µM
CCOC(=O)C1(Cc2ccccc2)CN(c2ccccc2)Cc2nnn(Cc3c(F)cccc3Cl)c21 (stereo not shown),human adenovirus 2,viral replication,HEL,,> 100 µM
Nc1ccn([C@H]2CC[C@@H](CO)O2)c(=O)n1,human adenovirus 2,viral cytopathic effect,HEL,,7.3 µM
CCOC(=O)C1(Cc2ccccc2)CN(c2ccccc2)Cc2nnn(Cc3cc(OC)c(OC)c(OC)c3)c21 (stereo not shown),human adenovirus 2,viral replication,HEL,,> 100 µM
CC(C)(O)Cc1nc(N)[nH]c(=O)c1Br,reovirus type 1,virus-induced cytopathicity,Vero,,> 100 µM
CCC(C)n1ncn(-c2ccc(N3CCN(c4ccc(OCC5COC(Cn6cncn6)(c6ccc(Cl)cc6Cl)O5)cc4)CC3)cc2)c1=O (stereo not shown),enterovirus D68,"viral replication, inhibitor",,72 h,0.43 ± 0.07 µM
CCOC(=O)C1(Cc2ccccc2)CN(c2ccccc2)Cc2nnn(Cc3cccc(Cl)c3)c21 (stereo not shown),human adenovirus 2,viral replication,HEL,,> 100 µM
C[C@H]1CN(c2n[nH]c3nc(N[C@H]4CC[C@H](NS(=O)(=O)CCC(F)(F)F)CC4)ncc23)CCO1,Leishmania donovani,cell growth,"promastigotes, LdBOB",life-cycle stage comparison,0.0058 ± 0.0003 µM
CCCCCCn1nnc2c1CCN(c1ccccc1)C2,human adenovirus 2,viral replication,HEL,,> 100 µM
CCCc1nc(N)[nH]c(=O)c1Br,reovirus type 1,virus-induced cytopathicity,Vero,,> 100 µM
COc1ccccc1CCn1nnc2c1CCN(c1ccccc1)C2,human adenovirus 2,viral replication,HEL,,> 100 µM
COCC(=O)N1CCC[C@H](C(=O)NCc2nc(-c3ccc(C#N)cc3)cs2)C1,Plasmodium falciparum,,Dd2,with: WLW-vs fixed ratio 1.00:0.00,0.013 µM and 0.016 µM
CC(C)CC(=O)OC[C@H]1O[C@@](C#N)(c2ccc3c(N)ncnn23)[C@H](O)[C@@H]1O,human respiratory syncytial virus,viral replication,HEp-2,without verapamil,0.301 µM
COc1ccc(CCn2nnc3c2CCN(c2ccccc2)C3)cc1,human adenovirus 2,viral replication,HEL,,> 100 µM
